Results of several laboratories.
Compare with care: the assays were run in different laboratories.
KRAS G12D: GTPase KRas (KRAS, Homo sapiens, UniProt P01116, G12D)
KRAS: GTPase KRas (KRAS, Homo sapiens, UniProt P01116)

C#Cc1cccc2cc(O)cc(-c3ncc4c(N5CC6CCC(C5)N6)nc(OCC56CCCN5CCC6)nc4c3F)c12
IC50 (KRAS G12D; target engagement in cells, BRET): < 0.1 µM

C=CC(=O)N1CCN(c2nc(OCC34CCCN3CCC4)nc3c(F)c(-c4ccc(F)c5sc(N)nc45)c(C(F)(F)F)cc23)CC1
IC50 (GTPase KRas, GppNHp; with RAF1 RBD (KRAS, Homo sapiens, UniProt P01116, G12C); KRAS G12C-RAF1 RBD interaction, inhibitor, HTRF; GppNHp-bound): 0.14 µM

Cc1ncsc1-c1ccc(C(CO)NC(=O)C2CC(O)CN2C(=O)C(C(C)C)n2cc(-c3ccc(COc4c(-c5c(C)c(F)cc6[nH]ncc56)c(C5CC5)cc5c(N6CC7CC6CN7)nc(OC6CCOCC6)nc45)cc3)nn2)cc1 (stereo not shown)
IC50 (GTPase KRas, with RAF (KRAS, Homo sapiens, UniProt P01116); KRAS-RAF binding, inhibitor, TR-FRET; together with: SOS): > 10 µM

COc1cccc(-c2ccc(Nc3ccc(CN(C)C)cc3)c(OC)c2F)c1
IC50 (KRAS; enzyme activity, inhibitor): > 3000 µM

C=CC(=O)N1C[C@H](C)N(c2nc(OC[C@@]34CCCN3C[C@H](F)C4)nc3c(F)c(-c4ccc(F)c5sc(N)c(C#N)c45)c(C(F)(F)F)cc23)C[C@H]1C
IC50 (GTPase KRas, GTP; with RAF1 RBD (KRAS, Homo sapiens, UniProt P01116, G12C); inhibitor): < 0.1 µM

COCCNc1nc(-c2nccn2C)nc2sc(-c3cccc(OC)c3Cl)c(-c3ccccc3)c12
IC50 (KRAS G12D; GTP binding, inhibitor, cell-free GTP competition; together with: fluorescent GTP 100 nmol/L): 2.5 µM

CC(C)(C)OC(=O)NCCNC(=O)c1ccc2[nH]c(/C(=N/Nc3ccc(F)cc3)c3ccc(O)cc3)nc2c1
IC50 (KRAS G12D; enzyme activity, inhibitor): 1270 µM

Nc1nc2c(-c3c(C(F)(F)F)cc4c(N5CCNCC5)nc(OCC56CCCN5CCC6)nc4c3F)ccc(F)c2s1
IC50 (GTPase KRas, with RAF1 RBD (KRAS, Homo sapiens, UniProt P01116, G12D); KRAS G12D-RAF1 binding, HTRF): 1.4 µM

COC1CCC(Nc2nc(-c3nccn3C)nc3sc(-c4ccn(C)n4)c(-c4ccccc4)c23)C1 (stereo not shown)
IC50 (GTPase KRas (KRAS, Homo sapiens, UniProt P01116, Q61H); GTP binding, inhibitor, cell-free GTP competition; together with: fluorescent GTP 100 nmol/L): 3 µM

Cn1cnc(Cn2ccc3ccc(CNCc4[nH]c5ccccc5c4C4NC(=O)c5ccc(O)cc54)cc32)c1 (stereo not shown)
IC50 (KRAS; enzyme activity, inhibitor): 26.9 µM
